Experimental data gathered from unrelated publications.
Numbered parts are unrelated; each lists some results of a single study. Positions count from the first letter of the parent shown.

Series 1 — technique: RNA Bind-n-Seq; molecule type: RNA; medium: in vitro; tested at: 365 nM; relative to: no-protein control; reading: higher = stronger binding
Target: RNA binding protein fox-1 homolog 2, RRM domain, GST-SBP tag (RBFOX2, Homo sapiens, UniProt O43251-10, residues 100-194)
Setting: natural RNA segment, single round, ends assumed
Construct (chain): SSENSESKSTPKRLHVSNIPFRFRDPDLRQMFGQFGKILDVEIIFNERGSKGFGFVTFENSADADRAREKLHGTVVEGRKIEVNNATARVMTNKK
Strand | RBNS enrichment (R)
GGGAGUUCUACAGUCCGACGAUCAUUAUGGUUUUUAGUUAUGACAUCACAAUGUGUCAAGAGUGGAACAAUAAACGUUUCCCUUGUGUUCACUGAGGUUUGCACACAUGAACGUCUGUGUUCUGGAUCUUGGGUGGAAUUCUCGGGUGCCAA | 0.417
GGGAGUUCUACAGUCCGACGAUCGGGGUUUCUUGUCUGCAGAGUGUAGAGACUCAUCAGUGUACAGAUGAGACCUGCUCAUCGUGCGACUGUAACCCUUCAGUCCUAGCUGCUUUUGAAGAGGUUUCCAUUUUUGGAAUUCUCGGGUGCCAA | 0.429
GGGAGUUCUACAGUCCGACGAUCACUGCAAAGCCAUUCCUGACCUGUAAACCUCAGCUCUCCAUCUCUAUAAGAGGUAUAGCCUGGGCUAAUACCGUCCAAGUUACAACUCCUUGCUUGCUUUCUGUUCCUUCUGGAAUUCUCGGGUGCCAA | 0.959
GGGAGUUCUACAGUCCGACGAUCCUGGUCACUGGCCCUGCACACUGGGCUAUUGCUUUAUCCCUAUCCUGAGAGCAGCCCCUCCCCACCAUCCCUCCACAUGCUGCAAGGACAGACUGAAGGGCUGUGAGCAGUGGAAUUCUCGGGUGCCAA | 0.53
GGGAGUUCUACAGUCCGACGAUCCUAGAAGUUGAGUCUGAGUACAUCAGAGUUUGGCAUUAUUUGCAACAUCCCAGGAAUGAGCUAUAAGACUCCAUUGCUUUCUGGACUUUAGUGACCAGCUGAUCUUCCCUUGGAAUUCUCGGGUGCCAA | 0.213
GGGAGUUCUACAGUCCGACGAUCGUAGAGCUGUGAGAGCAGUGGGGGCUGCCCUCUGUAGAGCUGUGAGAGCAGUGGGGGCUGCCCUCUGUAGAGCUGUGAGGGAGAGGCUUUCUGAUCAGAUGAACAUCUGUUGGAAUUCUCGGGUGCCAA | 0.516
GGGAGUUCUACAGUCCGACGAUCGUAGGGGACCCCUGCGGUUCCAGCCUCUUAGCCUUGGUUUGUUGGUCACAUAGCACUGUUAAAUUUAUCCGAGGCAUAAGUAGUUCCUAGAGGAGACAGUCUAUCACUCCUGGAAUUCUCGGGUGCCAA | 0.286
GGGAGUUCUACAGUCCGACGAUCGCAGGAGGCUGACAUAGUGAUAUUGAGUAGUGAUUAGGAAAGGGGCGGUGUUGAACUGUUUGUGUAGAAAGCCAUCUUUCUGUCUCUUAAGCUCCUCUGGUUUGUCUGGUUGGAAUUCUCGGGUGCCAA | 2.14
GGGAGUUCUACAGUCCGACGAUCCCCCUUGUUGGACACACUGCCUUUCUCCUCCUCCUUUGCCGCUGGCAAGAGCCAGUGCCUGACUGAGGCCUUCCUGUGUUGUGGCCUUCCCCCUCCAUCACCCCCAAGACUGGAAUUCUCGGGUGCCAA | 0.589
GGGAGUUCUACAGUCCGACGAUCGCCGCGUGCACCCUGCCGAGCUGCGUAUAUUCUGUACUGUGUACAAUAAAGAAGAUUGCUUUCCUUAGCAUUCCUGCAACCUGCCUCUUUCUUGCACUCGGUGUUUUCAUUGGAAUUCUCGGGUGCCAA | 1.12
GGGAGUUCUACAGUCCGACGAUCGGGGCGGGGCACCUGCAGACCAGCCCCCUCAGCUGCGGGAGCGGAGCAAGUUGUGCCCUGCCCUUCCCUCCCUGACCUGAGGCAGAACCCAGAUUAAGCAGGUCUCCACCUGGAAUUCUCGGGUGCCAA | 0.263
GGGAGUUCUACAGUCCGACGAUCCUGGAUAGCAGCUAAGGGGACAGACUCUGGAUGUGAGUCUUAGUUUAAAAAGGAAACUACAUGGAGACCAUGCAAAAACAUUUAAAUAAUCCACUGUGCUGUGGCUCGCUUGGAAUUCUCGGGUGCCAA | 0.552

Series 2 — technique: protein binding microarray; molecule type: double-stranded DNA, one strand shown; medium: in vitro; tested at: not given; relative to: not given; reading: higher = stronger binding
Target: Histone acetyltransferase KAT6A, winged helix 2, GST fusion (KAT6A, Homo sapiens, UniProt Q92794, residues 85-181)
Setting: 8-mer, flanks averaged, mean of 2 arrays, mostly near background
Target sequence (chain): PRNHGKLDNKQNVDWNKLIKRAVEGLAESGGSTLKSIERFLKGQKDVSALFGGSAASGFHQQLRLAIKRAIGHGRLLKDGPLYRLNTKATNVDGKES
Strand | E-score
CTCAACGA | -0.01
ACCGCGTC | 0.0591
TATTTCCA | -0.026
AGTATGAC | -0.148
AAGCACGG | -0.0399
GACCATGC | 0.08
CATCTAAA | 0.114
ATCGAGGA | 0.07
GGAGTTGA | -0.0782
TGTGCACA | -0.238
ATAGATGA | -0.0805
AGATGAAA | 0.0703
ACGGGCCT | 0.0802
CCCCTATC | -0.0955
AATCATCG | -0.0234
AATCACTG | 0.097
ATTGAGCA | -0.00973
AACCCCAG | -0.0725
AACCAACC | 0.0493
ATCGATGA | -0.0437
CATACCGC | -0.0146
CAACCTTG | 0.0461
ACCGCAGA | -0.0601
AAGCTCCC | 0.0278
TGAAGAAA | 0.107

Series 3 — technique: protein-binding microarray; molecule type: double-stranded DNA, one strand shown; medium: in vitro; tested at: not given; reading: higher = stronger binding
Target: Max-binding protein MNT, bHLH-zipper, MAX partner unstated (MNT, Homo sapiens, UniProt Q99583, residues 220-300)
Setting: k-mer, scored over probes, only values ≥0.25
Target sequence (chain): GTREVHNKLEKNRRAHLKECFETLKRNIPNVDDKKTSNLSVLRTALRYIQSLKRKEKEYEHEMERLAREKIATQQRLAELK
Strand | E-score
CATGCTCG | 0.381
CGGCCACG | 0.347
CACACCAC | 0.288
ATATGGCA | 0.262
CAGGTGGA | 0.292
ACCCACGC | 0.396
CGCACGCA | 0.355
GCGTGATA | 0.378
CATCATGC | 0.282
GACACGCC | 0.363
CGTGGATA | 0.324
ACGTGACT | 0.426
CCGACACG | 0.252
CATGGCTA | 0.273
ACACCATG | 0.331
GGTGCGCA | 0.286
CGTGCTAC | 0.397
CATGCGTC | 0.409

Series 4 — target: CCNE2, cyclin fold, Cln2 fusion (human); technique: yeast growth competition, sequencing; medium: yeast; setting: weak parent motif; relative to: not given; reading: higher = stronger binding
Parent: RB1 docking peptide (human); PKPLKKLRFDIEG; partner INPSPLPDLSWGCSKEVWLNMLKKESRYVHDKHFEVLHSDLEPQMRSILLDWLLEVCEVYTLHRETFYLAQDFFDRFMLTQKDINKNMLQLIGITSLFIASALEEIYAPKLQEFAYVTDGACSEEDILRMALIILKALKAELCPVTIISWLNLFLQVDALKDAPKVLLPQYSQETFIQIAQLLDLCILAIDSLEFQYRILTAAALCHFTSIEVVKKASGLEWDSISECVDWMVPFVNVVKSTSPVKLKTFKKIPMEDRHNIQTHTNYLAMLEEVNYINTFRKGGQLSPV
Substitution | normalised enrichment score
F9I | 0.419
G13N | -0.262
L4R | 0.587
K2C | 0.757
R8D | 0.164
E12K | -0.596
I11N | 1.31
P3V | 0.0244
D10K | 1.08
E12P | 1.41
K5H | 0.442
D10N | 1.11
E12Y | 0.509
E12M | 0.625
K6T | 0.457
K5P | 0.334
E12T | 1.55
K5N | 0.314
G13C | 0.899
L7I | 0.61
L4I | 0.456
K2A | 0.715
K2D | -0.518

Further values, each from its own experiment
Substance | target | test | system | conditions | how to read | quantity | value
PhoQ, residues 284 288 289 292 302 303 NLALSC | PhoP, residues 12 14 15 18 19 HEGLL (Escherichia coli, UniProt P23836) | Sort-seq, measured: YFP reporter | E. coli | PhoQ-PhoP variant library, together with: 10 µM Mg2+ | relative to: high Mg2+ state, higher = stronger signaling | fold induction | 2.71

Repeated from above (series 3):
Strand | E-score
ACCCACGC | 0.396
CGCACGCA | 0.355
GCGTGATA | 0.378
CATCATGC | 0.282
GACACGCC | 0.363
CGTGGATA | 0.324
ACGTGACT | 0.426
CCGACACG | 0.252
CATGGCTA | 0.273
